# Measured values from different studies.
# Parts stem from different laboratories: compare values within a part only. Values joined by “and” are separate records of one study, mostly repeats; a detail may differ. Positions count from the first letter of the parent shown.

# Series 1 — technique: protein binding microarray; form: double-stranded DNA, one strand shown; medium: in vitro; tested at: not given; reference: not given; reading: higher = stronger binding
# Target: Histone acetyltransferase KAT6A, winged helix 1, GST fusion (KAT6A, Homo sapiens, UniProt Q92794, residues 1-85)
# Setting: 8-mer, flanks averaged, mean of 2 arrays, mostly near background
# Target sequence (chain): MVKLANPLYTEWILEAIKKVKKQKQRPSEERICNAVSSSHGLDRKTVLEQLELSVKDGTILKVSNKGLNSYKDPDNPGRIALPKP
Oligonucleotide,E-score
ATGTGAAA,-0.0727
CCGTCAAA,0.196
CTGGTGTC,-0.322
GCCCAAGC,0.102
ATGGCGCC,0.226
GCGTACCA,0.0114
AAGAGTGA,-0.247
CCACCAGC,-0.212
CATAGATA,-0.0987
GATTAACC,0.0176

# Series 2 — target: CCNA1, cyclin fold, Cln2 fusion (human); technique: yeast growth competition, sequencing; medium: yeast; setting: weak parent motif; reference: not given; reading: higher = stronger binding
# Starting sequence: INSM1 docking peptide (human); PKAIRKLHFEDEV; partner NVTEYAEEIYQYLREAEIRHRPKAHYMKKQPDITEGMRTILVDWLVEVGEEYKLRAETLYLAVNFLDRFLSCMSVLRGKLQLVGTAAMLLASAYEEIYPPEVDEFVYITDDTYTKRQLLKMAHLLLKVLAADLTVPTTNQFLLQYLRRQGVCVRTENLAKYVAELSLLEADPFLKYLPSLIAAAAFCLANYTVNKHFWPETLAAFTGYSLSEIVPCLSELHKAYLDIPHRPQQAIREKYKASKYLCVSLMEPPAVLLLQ
Variant,normalised enrichment score
PKAIRKLHQEDEV [F9Q],0.185
PKAIRKLHFEDVV [E12V],0.781
PKAIRKLHFEDPV [E12P],0.644
PKAMRKLHFEDEV [I4M],1.37
PKPIRKLHFEDEV [A3P],0.319
PKAIRKLHFWDEV [E10W],0.3

# Series 3 — technique: RNA Bind-n-Seq; form: RNA; medium: in vitro; tested at: 365 nM; reference: no-protein control; reading: higher = stronger binding
# Target: RNA binding protein fox-1 homolog 2, RRM domain, GST-SBP tag (RBFOX2, Homo sapiens, UniProt O43251-10, residues 100-194)
# Setting: natural RNA segment, single round, ends assumed
# Construct (chain): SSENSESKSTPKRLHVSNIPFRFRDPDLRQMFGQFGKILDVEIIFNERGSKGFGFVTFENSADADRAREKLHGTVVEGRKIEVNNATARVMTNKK
Oligonucleotide,RBNS enrichment (R)
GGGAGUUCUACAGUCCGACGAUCGACGAGGCUCGACCCUGAUCCAGCACCAGCGCAUCCAUACCGGCGAGAAGCCUUACAAAUGUGAGGUUUGCAGCAAGGCCUUUUCCCAGAGCUCUGACCUCAUCAAACACUGGAAUUCUCGGGUGCCAA,0.404
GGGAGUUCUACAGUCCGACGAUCCCAGGAACCCAAGGGGAGGCUAGGAUCCCCUUGGGGAAAUCCAGGUAGCAUCAGGUAUUGACAGGGAUCUGAAUCCCAAAGCAGAGAGAGAGGUCCAACCCCGUGUGGCCUGGAAUUCUCGGGUGCCAA,0.772
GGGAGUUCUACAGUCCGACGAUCCUCCAAGGACCCAGGCGCCAGCAGCCCCAGGACACAGGGGACUCAGUGUGUGGGACUUGGUCACUCCAUGUCAGACACACGAGCAGAGAGGAACACAAACCACUGUGGAGUGGAAUUCUCGGGUGCCAA,0.315
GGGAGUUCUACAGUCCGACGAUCGAAUGAAAUUGUAUUUGUUAAAAUACACACAUUGGAGGACAAGAGCAGAUGACUACUUUUCGAAGUAAUGCUGCUCCUUCCUAAAAGUCUGUUUUCAAUCCUGGUAAUAUUGGAAUUCUCGGGUGCCAA,0.294
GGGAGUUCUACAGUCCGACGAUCGGAACAGGUACCUUGAGAGUGAGAGCUACCCAUUGCCUGUGGCCUAAAUCUGCUGUGCAGGUUGGGCUGGUCAUACUGUCAUGAUUUCAUUAACAGCCUGGGUGAACAUGUGGAAUUCUCGGGUGCCAA,1.18
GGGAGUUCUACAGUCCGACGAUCUCACUGUCCUCAGGAGCCAGGCAUCCUCCCUGGGUGCCCACUCUUUGCAUCUGCUUUUCCUGUAAGACUCCACUGUGCACUGGCAUCCAGAGAAGGUGUCUUUGGAGUUCUGGAAUUCUCGGGUGCCAA,4.18
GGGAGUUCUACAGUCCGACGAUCCCAUCCCCUGUCUCUGUCUUCCAGCUGUGAAUAUGAAGGGUAUCCUGUAUGAAACAAAAACAAAACCUGAUAUAUGCAAUAUCUGUCUGUCUGUCUGUACCCAUGGGCCUUGGAAUUCUCGGGUGCCAA,0.721
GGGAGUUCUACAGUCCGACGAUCGCAUGUCAAAGAGACCUAGGUUCUUUCUUUCUUUCUUUCUCUCUUUCUUUCAGUUUGCUUUUGGUUUCCUGUAUAUUUGCUUACUGUGCUGUUCUAGUGGUUGUAGGGUAUGGAAUUCUCGGGUGCCAA,16.3
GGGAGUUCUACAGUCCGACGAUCGUCUCCCCCACACACACCUGUCACCUCUCUACAGAGACCCUGAGGGUGCGGUGAGAUGGAGGCCAUGAUGCCUUGUGUGACUGUGAGUGUGUGUGUGUAUGCAUGAGAGAUGGAAUUCUCGGGUGCCAA,4.37
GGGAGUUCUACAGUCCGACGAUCGUGCCCCAGACUUUAACUGUGUAAAUAAGAGUGUUUCAUUCAAAUGUUAAUAAACUUUACACAGUAAAUAGACACACUUUCUGCAAUGUACUGACAUGAGUGUCCAAUAUUGGAAUUCUCGGGUGCCAA,0.336
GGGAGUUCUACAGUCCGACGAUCCGCUGCCUGACCACAGCAACCCCCUCCCGUGCGGCAGACGUCACUCCUCGCAUCGUGAGCUGAGGCUGCAGCAUUGGAACAAAACAGCAUUACAUCACUUUUCCUUUAAUUGGAAUUCUCGGGUGCCAA,10.6
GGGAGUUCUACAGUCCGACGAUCCCUGGCCUUCUAGGAAUGGAGGAGCCAGGCCCCACCCCUUCCCUAUAGGAACAGCCCAGCACAGGUAUUUCAGGUGUGAAAGAAUCAGUAGGACCAGGCCACCGCUAGUGUGGAAUUCUCGGGUGCCAA,0.247

# Single results of other studies
Molecule,target,test,system,setting,how to read,endpoint,value
"PhoQ, residues 284 288 289 292 302 303 SIHMAM","PhoP, residues 12 14 15 18 19 LWHSL (Escherichia coli, UniProt P23836)","Sort-seq, measured: YFP reporter",E. coli,"PhoQ-PhoP variant library, added: 10 µM Mg2+","reference: high Mg2+ state, higher = stronger signaling",fold induction,5.72 and 2.18

# For quick reference, copied from above (series 3):
Oligonucleotide,RBNS enrichment (R)
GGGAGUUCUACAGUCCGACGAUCCCAGGAACCCAAGGGGAGGCUAGGAUCCCCUUGGGGAAAUCCAGGUAGCAUCAGGUAUUGACAGGGAUCUGAAUCCCAAAGCAGAGAGAGAGGUCCAACCCCGUGUGGCCUGGAAUUCUCGGGUGCCAA,0.772
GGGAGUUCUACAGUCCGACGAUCGGAACAGGUACCUUGAGAGUGAGAGCUACCCAUUGCCUGUGGCCUAAAUCUGCUGUGCAGGUUGGGCUGGUCAUACUGUCAUGAUUUCAUUAACAGCCUGGGUGAACAUGUGGAAUUCUCGGGUGCCAA,1.18
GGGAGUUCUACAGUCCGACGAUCGCAUGUCAAAGAGACCUAGGUUCUUUCUUUCUUUCUUUCUCUCUUUCUUUCAGUUUGCUUUUGGUUUCCUGUAUAUUUGCUUACUGUGCUGUUCUAGUGGUUGUAGGGUAUGGAAUUCUCGGGUGCCAA,16.3
